Results from different studies.
Lines come from different studies, so protocols differ.
Cell line: SW-620

SMILES | test | setting | scale | endpoint | result
COc1ccc2c(c1)/C(=N\Nc1nnc3n1N=C(c1ccccc1)CS3)C(=O)N2 | cell growth or viability, SRB | 10 µM | – | inhibition | 21%
CCCCN(CCCC)CC(O)COc1c2ccoc2c(OC)c2oc(CC)cc(=O)c12 (stereo not drawn) | ELISA | IC50, 72 h | reference: control | IL-6 secretion reduction | ~50%
C1=[N+]2CCCC[N+]3=Cc4ccc5[n]4[Au-]23[n]2c1ccc2-c1nc2ccccc2nc1-5.F[P-](F)(F)(F)(F)F | cell growth | – | – | IC50 | 1.5 µM
COc1cc(CNC(=O)C[C@H](C)CCC=C(C)C)ccc1OCc1cn(-c2ccc(Br)cc2)nn1 | SRB | 10 µM, 48 h | – | growth percent | 91.7%
CCC(=C(c1ccc(Cl)cc1)c1ccc(OCCCN(C)C)cc1)c1ccc(OC)cc1 | cell growth or viability, SRB | – | – | GI50 | 1.16 µM
COc1cc(CNC(=O)C[C@H](C)CCC=C(C)C)ccc1OCc1cn(-c2ccc(Cl)c(Cl)c2)nn1 | SRB | 10 µM, 48 h | – | growth percent | 29.9%
CC/C=C\C/C=C\C/C=C\C/C=C\C/C=C\C/C=C\CCC(=O)Nc1ccn(C2OC(CO)C(O)C2(F)F)c(=O)n1 (stereo not drawn) | cell growth or viability, SRB | – | – | GI50 | 0.0759 µM
COc1cc(CNC(=O)C[C@H](C)CCC=C(C)C)ccc1OCc1cn(-c2ccc([N+](=O)[O-])cc2)nn1 | SRB | 10 µM, 48 h | – | growth percent | 86.8%
CC(Cc1ccc(Cl)cc1)=C(c1ccc(Cl)cc1)c1ccc(OCCN(C)C)cc1 | cell growth or viability, SRB | – | – | GI50 | 1.67 µM
